Measurements of several laboratories.
Protocols differ between the studies behind these lines.

SMILES | target or system | test | system | setting | how to read | measurement | value
Cl.c1ccc(CN2CCC3(CCCc4ccccc43)CC2)cc1 | HEK293 expressing MOR | morphine-induced cAMP overshoot, HTRF cAMP | – | 1 µM, with: NKH 477 25 nM | relative to: morphine control | efficacy | 138%
C#C[C@@]1(O)[C@@H](CO)O[C@@H](n2cc(I)c3c(N)ncnc32)[C@@H]1O | HL-60 | cell growth or viability, SRB | – | 48 h | – | GI50 | 0.05 µM
COc1cc(/C=C(\C#N)C(=O)c2ccc(O)c(O)c2)cc(I)c1O | HEK293 expressing MOR | cAMP overshoot, inhibitor, HTRF cAMP | – | with: morphine then naloxone | – | IC50 | 16.4 µM
COc1ccc2c(c1)c(CCN1CCOCC1)c(C)n2C(=O)c1cccc(Cl)c1Cl | HepG2 | phospholipidosis induction, inducer, high-content imaging | – | 24 h, primary screen | – | EC50 | 11.2 µM
C#C[C@@]1(O)[C@@H](CO)O[C@@H](n2cc(Br)c3c(N)ncnc32)[C@@H]1O | HL-60 | cell growth or viability, SRB | – | 48 h | – | GI50 | 0.047 µM
CCCCOc1ccc(Nc2cn(C3C=CC(O)C3)c(=O)n(CCCn3c(=O)c(C)cn(C4CC(N=[N+]=[N-])C(CO)O4)c3=O)c2=O)cc1 (stereo not shown) | MT4 | cell growth or viability | – | – | – | IC50 | 17.5 µM
C[C@H](NCCc1ccc(O)cc1)C(=O)c1ccc(OCc2ccccc2)cc1 | SK-BR-3 | cell viability, MTT | – | 72 h | – | IC50 | 0.143 µM
CN[C@@](C)(C[18F])C(=O)O | A549 tumour model | – | host not given, heart | 1 h, tumour-bearing | – | tracer uptake | 3.5 %ID/g
CC(O)(CS(=O)(=O)c1ccc(F)cc1)C(=O)Nc1ccc(C#N)c(C(F)(F)F)c1 (stereo not shown) | VCaP | cell growth or viability, ATP luminescence | – | – | – | IC50 | 4.95 µM
C=CC=C[C@@H]1CC2=CC(=O)CC[C@]2(C)[C@H]2CC[C@]3(C)[C@H](O)CC[C@H]3[C@H]12 | DU-145 | cell growth or viability, MTT | – | 48 h | – | IC50 | 23.8 µM
CC(C)[C@@H]1NC(=O)[C@@H]2CSSC[C@H](NC(=O)[C@@H](N)CCCCN)C(=O)N[C@@H](CCCNC(=N)N)C(=O)N[C@@H](CCC(=O)O)C(=O)N[C@H]3CSSC[C@H](NC(=O)[C@H](CCCCN)NC(=O)CNC(=O)[C@H](CC(N)=O)NC1=O)C(=O)N[C@@H](C(C)C)C(=O)N[C@H](C(=O)N1CCC[C@H]1C(=O)N[C@@H](C)C(=O)O)CSSC[C@H](NC(=O)[C@H](CO)NC(=O)[C@@H]1CCCN1C(=O)[C@H](CO)NC(=O)[C@H]([C@@H](C)O)NC(=O)[C@H](CC(N)=O)NC(=O)CNC3=O)C(=O)N[C@@H](Cc1ccc(O)cc1)C(=O)N[C@@H](Cc1ccccc1)C(=O)N[C@@H](CO)C(=O)NCC(=O)N[C@@H](CC(N)=O)C(=O)N2 | human CD4 effector memory T cells | flow cytometry | – | 1.5 µM, 30 min pre-incubation, with: anti-CD3 for 24 h | relative to: stimulated untreated | CD25 expression | ~55%
CN=c1nc(-c2ccccc2)n(-c2ccccc2)s1 | HEK293 expressing MOR | cAMP overshoot, inhibitor, HTRF cAMP | – | with: morphine then naloxone | – | IC50 | 16.4 µM
Cc1cn([C@H]2C[C@H](N=[N+]=[N-])[C@@H](CO)O2)c(=O)[nH]c1=O | MT4 | cell growth or viability | – | – | – | IC50 | 116 µM

A few entries again:
SMILES | target or system | test | system | setting | how to read | measurement | value
CCCCOc1ccc(Nc2cn(C3C=CC(O)C3)c(=O)n(CCCn3c(=O)c(C)cn(C4CC(N=[N+]=[N-])C(CO)O4)c3=O)c2=O)cc1 (stereo not shown) | MT4 | cell growth or viability | – | – | – | IC50 | 17.5 µM
